Measured values from different studies.
A part holds a random share of what one study measured.

Study 1
Cell line: HEK-293T
Observed: pseudovirus infection
Technique: FDA-approved drug library screen
Organism: VSV pseudotyped with SARS-CoV-2 spike
Concentration: 10 µM
Time: 16 h
Relative to: vehicle-treated
| Compound | GFP-positive cells |
| --- | --- |
| CCC(=O)NCC[C@@H]1CCc2ccc3c(c21)CCO3 | 103% |
| Nc1nc2[nH]cc(CCc3ccc(C(=O)N[C@@H](CCC(=O)O)C(=O)O)cc3)c2c(=O)[nH]1 | 80.9% |
| C[N+](C)(C)CCCCCCCCCC[N+](C)(C)C | 100% |
| NC(=O)N1c2ccccc2C=Cc2ccccc21 | 87.3% |

Study 2
Organism: SARS-CoV-2
Observed: cytopathic effect
Cell line: Vero E6
Concentration: 10 µM
| SMILES | inhibition [%] |
| --- | --- |
| Cc1ccc(S(=O)(=O)N[C@@H](Cc2ccccc2)C(=O)CCl)cc1 | -43.8 |
| O=[N+]([O-])C=Cc1ccc2c(c1)OCO2 | -3.1 |
| CC(C)(C)c1ccc(S(=O)(=O)/C=C/C#N)cc1 | -35.7 |
| CC[C@H](CO)Nc1nc(NCc2ccc(-c3ccccn3)cc2)c2ncn(C(C)C)c2n1 | -6.3 |

Study 3
Target: RNA binding protein fox-1 homolog 2, RRM domain, GST-SBP tag (RBFOX2, Homo sapiens, UniProt O43251-10, residues 100-194)
Technique: RNA Bind-n-Seq
Form: RNA
Matrix: in vitro
Concentration: 365 nM
Notes: natural RNA segment, single round, ends assumed
Relative to: no-protein control
Direction: higher = stronger binding
Constant ends, left off below: GGGAGUUCUACAGUCCGACGAUC … UGGAAUUCUCGGGUGCCAA
| Oligonucleotide | RBNS enrichment (R) |
| --- | --- |
| CGACUCUGUAGCCUUCUUGAAGCCCCCAGCCCUAAUCUCACCCUCUCCUCCAGUGUGGGCUUGACCAGGCUUGGCCUUGGGCUAUUUGGACUCAGGUGGGCCCUCUGAAC | 0.466 |
| CCAGUCCUGAGGGAGGGGCUUGCCCCACCUUCUACAUUCCAAUUUUUAUAUCUUUGAAUUAUGUGAUUAGAUAUUAAUUUAAUGAUAAAACCACUCUGAAAGCUCUUCUC | 0.428 |
| UAAUAGAAGCUCAACUAUUUUUUUGUGGAUUUCAGUUUUUAUCAUCAGAAGUCCUAGACAGUGACAUUUCUUAAUGGUGGGAGUCCAGCUCAUGCAUUUCUGAUUAUACA | 0.495 |
| UUUGUAGAUAUGGAGAUGAAGAAGACAAAUCUUUAUUAUAAUAUUGAUCAGUUUUAUGCCGCAUUGUUCGUGGCAGUAGACCACAUCUGUUCGUCUGCACAGCUGUGAGG | 0.526 |
| UUUUUCUACCAACUCUCCAGAGCGUGAGUAUAGGAGUGCCAUGAGCUUUUUAGUCAGCAGUUUUGUAAACUCUGUAUAUAAAAUCAUUAACCACACAUUGUGGGUGAUGG | 0.397 |
| CUUGUCUUUACAAAAUAUAAUUGAUUAAGAUAUGUCAAGACCUACAUUGUCUAAGCACCGGCAAAUUAAAAUGUCGAGAAUCACUUCAGUCAAAAACCUUUAUAUUCUGU | 0.372 |
| CUUAGCUGACUGUGCCCACGCCAGUCUUCAGGCACUGCAAGCAGCCGCUGGUCCCUGCUAUCCGAAGUGCCAUGCUUCCAGGAAGGACCAUGGGAAUGGUUUUGAGGACC | 1.07 |
| AUCCAAGACUGAAUGAAAGCGCUUUUCUUAUGCAUACAAUGUGAGCAAGAACAAGAACUGUUUAAGGCACCUCUGUUCCCAGCCACUGAAGAGAGACGUCAGAAGAUGUU | 1.03 |

Study 4
Target: Replicase polyprotein 1ab, nsp13 helicase (rep, Severe acute respiratory syndrome coronavirus 2, UniProt P0DTD1)
Action: inhibitor
Concentration: 20 µM
| SMILES | inhibition [%] |
| --- | --- |
| O=C(/C=C/c1cccc(S(=O)(=O)Nc2ccccc2)c1)NO | 11.1 |
| COc1ccc(-n2c(SCc3nc(-c4ccc(C)cc4)no3)nnc2-c2ccncc2)cc1 | 3.64 |
| CC1(C)S[C@@H]2[C@H](NC(=O)[C@H](C(=O)O)c3ccsc3)C(=O)N2[C@H]1C(=O)O | -1.05 |
| CC(C)NCC(O)c1ccc2ccccc2c1 (stereo not drawn) | 1.94 |
| CC(=O)c1ccc2c(c1)N(CCCN1CCN(CCO)CC1)c1ccccc1S2 | 18.2 |
| CCCCCCCCCCCC(=O)N(CCO)CCO | -0.4 |
| CCOC(=O)c1c(CSc2ccccc2)n(C)c2cc(Br)c(O)c(CN(C)C)c12 | 1.42 |
| Cc1cc(C)c2c(c1)[C@@H](N(Cc1cc(C(F)(F)F)cc(C(F)(F)F)c1)c1nnn(C)n1)CCCN2C[C@H]1CC[C@H](C(=O)O)CC1 | 7.98 |
| CCOC(=O)[C@@H](C)Oc1ccc(Oc2nc3ccc(Cl)cc3o2)cc1 | 2 |
| C[C@@H]1O[C@@H](O[C@@H]2[C@@H](O)[C@H](OCCc3ccc(O)c(O)c3)O[C@H](CO)[C@H]2OC(=O)/C=C/c2ccc(O)c(O)c2)[C@H](O)[C@H](O)[C@H]1O | -4.57 |
| NC(=O)c1cc(N2CC2)c([N+](=O)[O-])cc1[N+](=O)[O-] | 4.24 |
| c1ccc2c(c1)CCCc1cc(NCCN3CCOCC3)nnc1-2 | 9.59 |
| O=C(O)[C@@H](O)[C@@H](O)[C@H](O)[C@@H](O)C(=O)O | 0.42 |
| Cc1nc(C)c(C)nc1C | 1.61 |
| C=CC(C)(O)CCC=C(C)C (stereo not drawn) | 0.38 |
| O=C(Nc1ccc([N+](=O)[O-])cc1O)Nc1ccccc1Br | 3.57 |
| C#CCN(C)Cc1ccccc1 | 1.11 |
| CN(c1ncccc1CNc1nc(Nc2ccc3c(c2)CC(=O)N3)ncc1C(F)(F)F)S(C)(=O)=O | 9.31 |
| COc1ccc2c(c1)C(C(=O)N(Cc1ccc(N(C)C)cc1)c1ccc(C(C)C)cc1)CCC2 (stereo not drawn) | -0.41 |
| O=c1[nH]c2cc(Cl)ccc2c(O)c1-c1cccc(Oc2ccccc2)c1 | 3.24 |
| O=C1[C@@H]2[C@H]3CC[C@H](C3)[C@@H]2C(=O)N1C[C@@H]1CCCC[C@H]1CN1CCN(c2nsc3ccccc23)CC1 | 7.38 |
| COC(=O)CCc1ccc(OCC(O)CNC(C)C)cc1 (stereo not drawn) | -1.13 |
| CC(C)(C)NC(=O)[C@@H]1C[C@@H]2CCCC[C@@H]2CN1C[C@@H](O)[C@H](Cc1ccccc1)NC(=O)[C@H](CC(N)=O)NC(=O)c1ccc2ccccc2n1 | -8.94 |
| CC(C)CNc1nc(-c2cccc3ncccc23)cn2c(-c3ccc(C(=O)NC4CC4)cc3)cnc12 | 2.41 |
| CC(Cc1ccc(O)cc1)NCC(O)c1cc(O)cc(O)c1 (stereo not drawn) | 5.2 |

Study 5
Target: Ras GTPase-activating protein-binding protein 1, C-terminal RGG region (G3BP1, Homo sapiens, UniProt Q13283)
Sequence of UniProt Q13283 (whole entry, looked up): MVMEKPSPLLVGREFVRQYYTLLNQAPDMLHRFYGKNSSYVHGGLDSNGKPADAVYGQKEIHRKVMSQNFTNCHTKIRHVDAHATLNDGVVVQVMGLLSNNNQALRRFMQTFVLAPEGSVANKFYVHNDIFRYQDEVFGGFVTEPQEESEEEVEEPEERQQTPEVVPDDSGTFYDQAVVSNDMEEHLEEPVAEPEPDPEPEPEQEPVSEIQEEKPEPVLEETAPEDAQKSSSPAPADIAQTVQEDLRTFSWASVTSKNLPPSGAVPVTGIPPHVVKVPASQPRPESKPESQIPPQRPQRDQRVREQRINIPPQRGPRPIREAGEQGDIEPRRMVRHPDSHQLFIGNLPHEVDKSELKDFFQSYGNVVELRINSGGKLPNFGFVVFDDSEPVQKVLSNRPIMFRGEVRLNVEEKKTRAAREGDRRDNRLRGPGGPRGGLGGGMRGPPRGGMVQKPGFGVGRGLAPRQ
Technique: RNA Bind-n-Seq
Form: RNA
Matrix: in vitro
Concentration: 1 µM
Notes: whole 134-nt RNA, ends assumed
Added: 150 mM KCl
Relative to: input library
Direction: higher = stronger binding
Constant ends, left off below: GGGAGUUCUACAGUCCGACGAUC … UGGAAUUCUCGGGUGUCAAGG
| Oligonucleotide | log2 enrichment |
| --- | --- |
| CCUGUGCUACACAUCGUAUGUACCGAAUCAAACCCCCCCAAAUUUUUAAACCCCCCCAAAAAAGUAUUAUGUUACGCCGUUCGGAUCUGC | -1.03 |
| CCUCAAGUCCUGUGCUACACAUCGUAUGUACCGAAUCGGAGGGAGGGGAGGGAAAGUAUUAUGUUACGCCGUUCGGAUCUGCACUUCCAG | 0.474 |
| UGGCCCUGGUGGCAUGCGGGGAGGAAGAGGUGGCCUCAUGGAUCGUGGUGGUCCCGGUGGAAUGUUCAGAGGUGACCGUGGUGGAGACAG | 2.82 |
| CACAGACAACACGCAGCCACACAGACACAGAGGGAAGGGGUUGGGAUGGGGACAGGGUGCACAGCAGGGCGGGGUAGGACCCCAGCCCCU | -0.457 |
| AAGUCCUGUGCUACACAUCGUAUGUACCGAAUCGGAAAAAGGAAAGGUUUUUUUGGAAAGUAUUAUGUUACGCCGUUCGGAUCUGCACUU | -2.46 |

Study 6
Target: Sal-like protein 4, full length isoform A (SALL4, Homo sapiens, UniProt Q9UJQ4, residues 1-1053)
Sequence of UniProt Q9UJQ4 (whole entry, looked up): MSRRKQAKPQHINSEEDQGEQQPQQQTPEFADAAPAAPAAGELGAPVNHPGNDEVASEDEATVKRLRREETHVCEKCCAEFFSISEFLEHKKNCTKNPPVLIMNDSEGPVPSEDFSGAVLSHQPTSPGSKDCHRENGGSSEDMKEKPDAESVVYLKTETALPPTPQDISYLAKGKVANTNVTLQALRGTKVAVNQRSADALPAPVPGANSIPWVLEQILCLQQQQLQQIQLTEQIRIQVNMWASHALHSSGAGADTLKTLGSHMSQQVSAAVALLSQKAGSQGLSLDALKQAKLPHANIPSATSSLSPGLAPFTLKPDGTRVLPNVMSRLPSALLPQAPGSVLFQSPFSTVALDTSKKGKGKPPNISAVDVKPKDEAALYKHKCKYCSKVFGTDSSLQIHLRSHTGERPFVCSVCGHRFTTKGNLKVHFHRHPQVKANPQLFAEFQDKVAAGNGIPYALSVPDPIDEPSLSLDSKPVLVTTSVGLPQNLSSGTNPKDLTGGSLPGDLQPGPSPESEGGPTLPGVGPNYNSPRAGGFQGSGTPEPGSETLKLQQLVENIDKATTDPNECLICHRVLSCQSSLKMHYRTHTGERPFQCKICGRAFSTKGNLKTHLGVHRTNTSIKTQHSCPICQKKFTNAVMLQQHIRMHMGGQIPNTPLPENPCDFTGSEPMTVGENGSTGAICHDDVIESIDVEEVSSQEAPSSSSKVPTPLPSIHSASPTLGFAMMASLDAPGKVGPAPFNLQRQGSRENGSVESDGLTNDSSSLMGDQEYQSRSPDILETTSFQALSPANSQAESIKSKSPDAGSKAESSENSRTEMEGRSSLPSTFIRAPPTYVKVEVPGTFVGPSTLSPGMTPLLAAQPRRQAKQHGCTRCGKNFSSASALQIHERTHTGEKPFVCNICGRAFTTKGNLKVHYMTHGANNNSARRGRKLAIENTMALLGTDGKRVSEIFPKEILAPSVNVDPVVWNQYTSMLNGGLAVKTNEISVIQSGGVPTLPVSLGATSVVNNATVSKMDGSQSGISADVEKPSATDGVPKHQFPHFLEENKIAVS
Technique: universal PBM
Form: double-stranded DNA, one strand shown
Matrix: in vitro
Concentration: 600 nM
Notes: 8-mer, flanks averaged, mean of replicates
Direction: higher = stronger binding
| Oligonucleotide | E-score |
| --- | --- |
| AACCTACA | 0.124 |
| CAGTGTAC | -0.0833 |
| CGCTTTAA | 0.0392 |
| ATTCAGTG | 0.117 |
| GACTTTAA | 0.202 |
| CGGGAGAA | -0.139 |
| ACTGCCAG | -0.0786 |
| CAGTCTTA | 0.0741 |

Repeated from above (study 1):
| Compound | GFP-positive cells |
| --- | --- |
| CCC(=O)NCC[C@@H]1CCc2ccc3c(c21)CCO3 | 103% |
| Nc1nc2[nH]cc(CCc3ccc(C(=O)N[C@@H](CCC(=O)O)C(=O)O)cc3)c2c(=O)[nH]1 | 80.9% |
| C[N+](C)(C)CCCCCCCCCC[N+](C)(C)C | 100% |
| NC(=O)N1c2ccccc2C=Cc2ccccc21 | 87.3% |
